Published values gathered from unrelated publications.
Parts stem from different laboratories: compare values within a part only. “And” joins repeats or separate records; there may be more than shown.
Sequence of UniProt Q8N568 (whole entry, looked up): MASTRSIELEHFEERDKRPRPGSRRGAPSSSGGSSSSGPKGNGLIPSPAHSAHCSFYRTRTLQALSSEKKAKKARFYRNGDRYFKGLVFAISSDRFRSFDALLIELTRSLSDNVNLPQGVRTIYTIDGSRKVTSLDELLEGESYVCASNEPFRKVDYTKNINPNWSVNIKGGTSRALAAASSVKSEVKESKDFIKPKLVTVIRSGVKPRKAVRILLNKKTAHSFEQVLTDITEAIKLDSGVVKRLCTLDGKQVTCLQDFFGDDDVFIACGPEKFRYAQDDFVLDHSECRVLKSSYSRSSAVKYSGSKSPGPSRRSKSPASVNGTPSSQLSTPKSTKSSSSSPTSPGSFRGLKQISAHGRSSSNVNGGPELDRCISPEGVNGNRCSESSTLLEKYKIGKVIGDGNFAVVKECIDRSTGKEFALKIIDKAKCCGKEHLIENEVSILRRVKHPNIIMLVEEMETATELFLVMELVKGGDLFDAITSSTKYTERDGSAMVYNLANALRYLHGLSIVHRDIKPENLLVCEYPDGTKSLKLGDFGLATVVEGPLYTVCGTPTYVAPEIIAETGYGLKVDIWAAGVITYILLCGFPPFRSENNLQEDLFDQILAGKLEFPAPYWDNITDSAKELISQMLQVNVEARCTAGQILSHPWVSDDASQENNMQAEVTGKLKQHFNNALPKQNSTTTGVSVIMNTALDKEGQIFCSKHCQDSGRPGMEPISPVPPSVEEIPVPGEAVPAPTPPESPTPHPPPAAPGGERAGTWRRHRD
Sequence of UniProt Q7KZI7 (whole entry, looked up): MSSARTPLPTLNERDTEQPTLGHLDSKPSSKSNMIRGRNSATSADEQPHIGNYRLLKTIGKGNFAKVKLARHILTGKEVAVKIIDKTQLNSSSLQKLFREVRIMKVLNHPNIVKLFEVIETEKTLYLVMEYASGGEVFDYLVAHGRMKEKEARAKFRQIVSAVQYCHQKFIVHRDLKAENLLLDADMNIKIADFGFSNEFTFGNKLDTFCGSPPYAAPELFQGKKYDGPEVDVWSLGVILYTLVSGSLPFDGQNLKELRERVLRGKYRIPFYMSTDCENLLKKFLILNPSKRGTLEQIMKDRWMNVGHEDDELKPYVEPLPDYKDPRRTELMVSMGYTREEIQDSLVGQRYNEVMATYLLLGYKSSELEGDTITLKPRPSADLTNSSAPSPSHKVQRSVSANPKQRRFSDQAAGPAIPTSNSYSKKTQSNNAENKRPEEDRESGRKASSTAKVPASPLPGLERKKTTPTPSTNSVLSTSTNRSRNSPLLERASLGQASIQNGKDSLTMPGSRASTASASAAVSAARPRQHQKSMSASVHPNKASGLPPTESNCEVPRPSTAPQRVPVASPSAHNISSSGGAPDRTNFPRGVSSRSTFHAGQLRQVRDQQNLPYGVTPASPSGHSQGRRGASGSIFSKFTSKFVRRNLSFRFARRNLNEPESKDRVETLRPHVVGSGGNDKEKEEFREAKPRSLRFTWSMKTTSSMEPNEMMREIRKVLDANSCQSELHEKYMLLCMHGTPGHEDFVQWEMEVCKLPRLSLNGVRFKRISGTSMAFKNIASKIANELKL
Sequence of UniProt Q96L34 (whole entry, looked up): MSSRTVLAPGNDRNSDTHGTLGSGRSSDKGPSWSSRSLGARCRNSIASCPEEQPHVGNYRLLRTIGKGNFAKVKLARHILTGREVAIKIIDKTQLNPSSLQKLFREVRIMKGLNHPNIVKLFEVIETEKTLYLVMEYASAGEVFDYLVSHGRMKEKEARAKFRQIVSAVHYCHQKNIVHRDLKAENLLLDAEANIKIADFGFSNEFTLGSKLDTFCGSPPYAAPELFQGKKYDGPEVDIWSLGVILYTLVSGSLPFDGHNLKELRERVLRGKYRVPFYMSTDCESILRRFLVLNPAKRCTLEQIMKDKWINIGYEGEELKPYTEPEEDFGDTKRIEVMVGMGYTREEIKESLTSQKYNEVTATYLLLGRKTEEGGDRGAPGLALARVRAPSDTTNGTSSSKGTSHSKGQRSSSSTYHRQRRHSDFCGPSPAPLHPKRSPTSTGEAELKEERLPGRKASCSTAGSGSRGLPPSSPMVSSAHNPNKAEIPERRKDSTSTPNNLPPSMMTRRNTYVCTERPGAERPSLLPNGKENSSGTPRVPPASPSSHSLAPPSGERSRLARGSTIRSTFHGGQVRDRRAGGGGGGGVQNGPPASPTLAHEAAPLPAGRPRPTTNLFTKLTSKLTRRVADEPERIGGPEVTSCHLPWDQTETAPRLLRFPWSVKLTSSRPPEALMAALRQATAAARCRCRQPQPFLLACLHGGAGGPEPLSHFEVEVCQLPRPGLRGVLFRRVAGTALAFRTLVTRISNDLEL
Sequence of UniProt Q92772 (whole entry, looked up): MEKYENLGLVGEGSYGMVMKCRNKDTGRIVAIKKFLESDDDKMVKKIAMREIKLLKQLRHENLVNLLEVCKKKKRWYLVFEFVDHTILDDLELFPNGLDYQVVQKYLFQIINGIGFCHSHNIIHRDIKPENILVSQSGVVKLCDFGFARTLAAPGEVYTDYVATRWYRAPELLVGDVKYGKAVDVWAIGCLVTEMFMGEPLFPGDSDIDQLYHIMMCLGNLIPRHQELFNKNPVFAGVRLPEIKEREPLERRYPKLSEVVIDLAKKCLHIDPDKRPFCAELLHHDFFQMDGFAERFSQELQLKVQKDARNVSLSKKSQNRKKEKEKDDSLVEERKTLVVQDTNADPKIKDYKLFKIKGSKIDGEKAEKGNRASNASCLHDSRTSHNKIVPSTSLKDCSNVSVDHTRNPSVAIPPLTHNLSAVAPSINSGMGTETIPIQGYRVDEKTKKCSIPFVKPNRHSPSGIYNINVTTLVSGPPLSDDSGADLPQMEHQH
Sequence of UniProt Q16539 (whole entry, looked up): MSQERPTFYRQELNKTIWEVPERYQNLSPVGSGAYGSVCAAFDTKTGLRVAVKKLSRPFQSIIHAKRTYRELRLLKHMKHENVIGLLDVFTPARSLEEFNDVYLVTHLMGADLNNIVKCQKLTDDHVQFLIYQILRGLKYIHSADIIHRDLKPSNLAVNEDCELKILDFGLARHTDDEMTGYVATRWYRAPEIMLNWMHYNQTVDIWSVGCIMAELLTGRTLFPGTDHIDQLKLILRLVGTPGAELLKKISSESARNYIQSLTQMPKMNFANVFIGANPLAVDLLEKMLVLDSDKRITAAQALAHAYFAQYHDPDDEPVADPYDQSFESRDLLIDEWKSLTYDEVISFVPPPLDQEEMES
Sequence of UniProt O75914 (whole entry, looked up): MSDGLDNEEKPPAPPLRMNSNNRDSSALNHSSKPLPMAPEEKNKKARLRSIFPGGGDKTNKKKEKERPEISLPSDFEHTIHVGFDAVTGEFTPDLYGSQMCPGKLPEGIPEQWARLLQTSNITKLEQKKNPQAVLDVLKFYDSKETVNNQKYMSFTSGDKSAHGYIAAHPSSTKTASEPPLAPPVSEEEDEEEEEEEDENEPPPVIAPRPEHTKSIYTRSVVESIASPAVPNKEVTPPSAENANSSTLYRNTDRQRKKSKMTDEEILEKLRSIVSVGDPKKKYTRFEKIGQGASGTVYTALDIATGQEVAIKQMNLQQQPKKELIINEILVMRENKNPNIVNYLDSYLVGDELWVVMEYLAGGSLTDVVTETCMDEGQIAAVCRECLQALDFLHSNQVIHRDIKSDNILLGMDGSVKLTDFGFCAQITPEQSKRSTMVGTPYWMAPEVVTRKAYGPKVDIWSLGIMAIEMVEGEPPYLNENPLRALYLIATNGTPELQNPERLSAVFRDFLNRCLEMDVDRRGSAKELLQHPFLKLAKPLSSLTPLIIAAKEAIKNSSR
Sequence of UniProt Q9NY57 (whole entry, looked up): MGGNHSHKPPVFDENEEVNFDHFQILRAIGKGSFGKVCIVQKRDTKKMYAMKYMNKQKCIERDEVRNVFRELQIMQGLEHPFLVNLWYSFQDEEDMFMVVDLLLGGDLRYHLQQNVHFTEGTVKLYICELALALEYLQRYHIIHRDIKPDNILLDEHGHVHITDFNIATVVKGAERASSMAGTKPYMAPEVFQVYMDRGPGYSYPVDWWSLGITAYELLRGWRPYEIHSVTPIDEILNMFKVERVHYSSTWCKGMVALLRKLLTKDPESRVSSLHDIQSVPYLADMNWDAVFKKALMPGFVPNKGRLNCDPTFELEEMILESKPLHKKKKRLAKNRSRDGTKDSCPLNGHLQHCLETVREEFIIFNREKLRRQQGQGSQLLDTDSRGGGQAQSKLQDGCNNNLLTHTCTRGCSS

Block 1 — effect on: cell-free assay; technique: competition with immobilised ligand; concentration: 1 µM
SMILES: C[C@@H]1CN(c2cc(-c3nn(C)c4ccc(OC5(C)CC5)cc34)ncn2)C[C@H](C)O1
target	remaining binding [%]
TGFBR1 (Homo sapiens, UniProt P36897)	89
NTRK3 (Homo sapiens, UniProt Q16288)	65
ZAP70 (Homo sapiens, UniProt P43403)	100
PRKAA1 (Homo sapiens, UniProt Q13131)	93
DYRK2 (Homo sapiens, UniProt Q92630)	83
CDKL2 (Homo sapiens, UniProt Q92772)	100
STK32B (Homo sapiens, UniProt Q9NY57)	100
CAMK1G (Homo sapiens, UniProt Q96NX5)	82
eIF-2-alpha kinase GCN2, C-terminal kinase domain (EIF2AK4, Homo sapiens, UniProt Q9P2K8, S808G)	100
BRSK2 (Homo sapiens, UniProt Q8IWQ3)	100
MAP3K12 (Homo sapiens, UniProt Q12852)	61

Block 2 — effect on: enzyme activity; mode: inhibitor; concentration: 0.5 µM; baseline: control
SMILES: O=Nc1c(-c2c(O)[nH]c3ccccc23)[nH]c2ccccc12
target	remaining activity [%]
MAP2K1 (Homo sapiens, UniProt Q02750)	99.6
CAMK4 (Homo sapiens, UniProt Q16566)	97.4
MAPK1 (Homo sapiens, UniProt P28482)	96.6
PRKG2 (Homo sapiens, UniProt Q13237)	67.3
PAK3 (Homo sapiens, UniProt O75914)	92.6
MET (Homo sapiens, UniProt P08581)	110
PNCK (Homo sapiens, UniProt Q6P2M8)	106
ROCK1 (Homo sapiens, UniProt Q13464)	101
RPS6KA4 (Homo sapiens, UniProt O75676)	58.7
TXK (Homo sapiens, UniProt P42681)	66.7
KDR (Homo sapiens, UniProt P35968)	72.9
MINK1 (Homo sapiens, UniProt Q8N4C8)	50.2
CLK3 (Homo sapiens, UniProt P49761)	48.2
PLK3 (Homo sapiens, UniProt Q9H4B4)	93
MAPK11 (Homo sapiens, UniProt Q15759)	92.9
MARK2 (Homo sapiens, UniProt Q7KZI7)	78.4
DDR2 (Homo sapiens, UniProt Q16832)	101
CLK4 (Homo sapiens, UniProt Q9HAZ1)	59.2
GRK4 (Homo sapiens, UniProt P32298)	98.3
AKT2 (Homo sapiens, UniProt P31751)	92
DCLK2 (Homo sapiens, UniProt Q8N568)	88.5
NEK3 (Homo sapiens, UniProt P51956)	102
Cyclin-dependent kinase 9, with cyclin K (CDK9, Homo sapiens, UniProt P50750)	59.7
MARK4 (Homo sapiens, UniProt Q96L34)	56.2
MAPK14 (Homo sapiens, UniProt Q16539)	97.2

Block 3 — effect on: enzyme activity; mode: inhibitor; concentration: 10 µM
Target: Calcium/calmodulin-dependent protein kinase type II subunit alpha (CAMK2A, Homo sapiens, UniProt Q9UQM7)
Sequence of UniProt Q9UQM7 (whole entry, looked up): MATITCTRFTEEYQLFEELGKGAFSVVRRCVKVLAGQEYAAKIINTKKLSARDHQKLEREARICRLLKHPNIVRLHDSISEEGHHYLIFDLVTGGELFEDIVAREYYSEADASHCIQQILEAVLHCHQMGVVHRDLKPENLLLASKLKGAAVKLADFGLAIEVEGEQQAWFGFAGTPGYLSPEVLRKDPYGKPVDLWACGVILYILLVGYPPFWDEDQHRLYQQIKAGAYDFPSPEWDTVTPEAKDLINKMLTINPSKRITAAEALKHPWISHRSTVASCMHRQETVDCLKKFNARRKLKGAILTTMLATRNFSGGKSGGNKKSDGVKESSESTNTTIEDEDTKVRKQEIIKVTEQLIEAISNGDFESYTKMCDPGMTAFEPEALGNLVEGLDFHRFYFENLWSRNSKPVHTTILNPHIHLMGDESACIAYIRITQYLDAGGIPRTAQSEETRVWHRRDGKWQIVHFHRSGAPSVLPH
SMILES	inhibition [%]
C/C=C1/C(=O)C[C@H]2[C@@H]3CCC4=CC(=O)CC[C@]4(C)[C@H]3CC[C@]12C	-63
CC(C)=CCC[C@](C)(O[C@@H]1O[C@H](CO[C@@H]2O[C@@H](CO)[C@H](O)[C@H]2O)[C@@H](O)[C@H](O)[C@H]1O)[C@H]1CC[C@]2(C)[C@@H]1[C@H](O)C[C@@H]1[C@@]3(C)CC[C@H](O[C@@H]4O[C@H](CO)[C@@H](O)[C@H](O)[C@H]4O[C@@H]4O[C@H](CO)[C@@H](O)[C@H](O)[C@H]4O)C(C)(C)[C@@H]3CC[C@]12C	10
Nc1nc(CC(=O)Nc2ccc(CCNC[C@H](O)c3ccccc3)cc2)cs1	-6
CO[C@]1(CC[C@@H](C)CO[C@@H]2O[C@H](CO)[C@@H](O)[C@H](O)[C@H]2O)O[C@H]2C[C@H]3[C@@H]4CC=C5C[C@@H](O[C@@H]6O[C@H](CO)[C@@H](O[C@@H]7O[C@@H](C)[C@H](O)[C@@H](O)[C@H]7O)[C@H](O)[C@H]6O[C@@H]6O[C@@H](C)[C@H](O)[C@@H](O)[C@H]6O)CC[C@]5(C)[C@H]4CC[C@]3(C)[C@H]2[C@@H]1C	8
CC1=C(C)C(=O)O[C@@H]([C@](C)(O)[C@H]2CC[C@H]3[C@@H]4[C@@H]5O[C@@H]5[C@@]5(O)CC=CC(=O)[C@]5(C)[C@H]4CC[C@]23C)C1	5
Cc1cc2nc[nH]c2cc1C	-50
C=C[C@H]1[C@H](O[C@@H]2O[C@H](CO)[C@@H](O)[C@H](O)[C@H]2OC(=O)c2c(O)cc(O)cc2-c2cccc(O)c2)OC=C2C(=O)OCC[C@H]21	-2
OCc1cc([C@@H](O)CNCCCCCCOCCOCc2c(Cl)cccc2Cl)ccc1O	-2
Cc1cc(C)nc(NS(=O)(=O)c2ccc(N)cc2)n1	-3
CC1C(=O)CCC1=O	61
COc1cccc2c1C(=O)c1c(O)c3c(c(O)c1C2=O)C[C@@](O)(C(=O)CO)C[C@@H]3O[C@H]1C[C@H](N)[C@H](O)[C@H](C)O1	-5

Block 4 — effect on: RNA clamping; technique: fluorescence polarization; concentration: concentration not given; with: FAM-labelled poly r(AG)8 RNA; direction: higher = more clamping
Target: Eukaryotic initiation factor 4A-I (EIF4A1, Homo sapiens, UniProt P60842)
Sequence of UniProt P60842 (whole entry, looked up): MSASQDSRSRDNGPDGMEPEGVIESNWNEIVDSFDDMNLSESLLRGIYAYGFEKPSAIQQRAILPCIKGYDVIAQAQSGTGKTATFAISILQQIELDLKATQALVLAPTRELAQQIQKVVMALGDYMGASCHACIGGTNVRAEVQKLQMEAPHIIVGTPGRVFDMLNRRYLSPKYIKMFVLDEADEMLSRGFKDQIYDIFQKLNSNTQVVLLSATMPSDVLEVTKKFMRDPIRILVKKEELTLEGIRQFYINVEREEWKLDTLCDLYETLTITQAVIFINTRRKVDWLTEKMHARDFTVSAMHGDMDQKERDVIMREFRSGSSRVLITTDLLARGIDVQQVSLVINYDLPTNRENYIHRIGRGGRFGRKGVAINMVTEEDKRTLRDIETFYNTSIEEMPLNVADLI
Structure (SMILES)	fluorescence polarization change
CCOC(=O)COc1cc(OC)c2c(c1)O[C@@]1(c3ccc(OC)cc3)[C@H](c3ccccc3)c3c(nc(-c4ccccc4)[nH]c3=O)[C@@]21OCC(=O)OCC	-15.9 mP
C#CCOc1ccc(-c2nc3c(c(=O)n2CC#C)[C@@H](c2ccccc2)[C@]2(c4ccc(OC)cc4)Oc4cc(OC)cc(OC)c4[C@]32O)cc1	-11 mP
COC(=O)[C@H]1[C@@H](O)[C@@]2(O)c3c(OC)cc(OS(=O)(=O)c4ccc(C)cc4)cc3O[C@@]2(c2ccc(Br)cc2)[C@@H]1c1ccccc1	19.3 mP and 33.2 mP
COc1cc(OC)c2c(c1)O[C@@]1(c3ccc(Br)cc3)[C@H](c3ccccc3)c3c(nc(-c4ccccc4)[nH]c3=O)[C@@]21O	11.7 mP
COC(=O)[C@H]1C(=O)[C@@]2(NN(C)C)c3c(OC)cc(OC)cc3O[C@@]2(c2ccc(OC)cc2)[C@@H]1c1ccccc1	2.3 mP
C#CCCC1(CCNC(=O)CCCn2c(-c3ccccc3)nc3c(c2=O)[C@@H](c2ccccc2)[C@]2(c4ccc(OC)cc4)Oc4cc(OC)cc(OC)c4[C@]32O)N=N1	4.9 mP
COC(=O)[C@@H]1[C@@H](c2ccccc2)[C@]2(c3ccc(OC)cc3)Oc3cc(OC)cc(OC)c3[C@@]23N=C2CCCCN2[C@@]13O	50.7 mP
COC(=O)[C@@H]1[C@@H](c2ccccc2)[C@]2(c3ccc(OC)cc3)Oc3cc(OC)cc(OC)c3[C@@]23OC(c2ccc(C(F)(F)F)cc2)=N[C@@]13O	-1.6 mP
COC(=O)[C@@H]1[C@@H](c2ccccc2)[C@]2(c3ccc(OC)cc3)Oc3cc(OC)cc(OC)c3[C@@]23NC(c2ccc(N(C)C)cc2)=N[C@@]13O	46.2 mP
COc1cc(O)cc2c1[C@]1(O)[C@H](O)[C@H](C(=O)N(C)OC)[C@@H](c3ccccc3)[C@]1(c1ccc(Br)cc1)O2	87.3 mP and 58.3 mP
COC(=O)[C@@H]1[C@@H](c2ccccc2)[C@]2(c3ccc(OC)cc3)Oc3cc(OC)cc(OC)c3[C@@]23NC(N2CCOCC2)=N[C@@]13O	68.9 mP
COc1ccc([C@@]23Oc4cc(OC)c(F)c(OC)c4[C@]2(O)c2nc4n(c(=O)c2[C@H]3c2ccccc2)CCC4)cc1	41.1 mP
COc1cc(F)cc2c1[C@]1(O)[C@H](O)[C@H](C#N)[C@@H](c3ccccc3)[C@]1(c1ccc(Br)cc1)O2	41 mP
COc1ccc([C@@]23Oc4cc(OC)cc(OC)c4[C@]2(O)C2=C(C(=O)N4CCC[C@@]4(C)N2)[C@H]3c2ccccc2)cc1	6.8 mP

For quick reference, copied from above (block 1):
target	remaining binding [%]
MAP3K12 (Homo sapiens, UniProt Q12852)	61
NTRK3 (Homo sapiens, UniProt Q16288)	65
ZAP70 (Homo sapiens, UniProt P43403)	100
CAMK1G (Homo sapiens, UniProt Q96NX5)	82
BRSK2 (Homo sapiens, UniProt Q8IWQ3)	100
PRKAA1 (Homo sapiens, UniProt Q13131)	93
STK32B (Homo sapiens, UniProt Q9NY57)	100
